Assay results pooled from the literature.
Every numbered part comes from another study and shows a few of its results, in no order.

Set 1
Target: Histone acetyltransferase KAT6A, winged helix 2, GST fusion (KAT6A, Homo sapiens, UniProt Q92794, residues 85-181)
Technique: protein binding microarray
Form: double-stranded DNA, one strand shown
Sample: in vitro
Tested at: not given
Notes: 8-mer, flanks averaged, mean of 2 arrays, mostly near background
Reference: not given
Direction: higher = stronger binding
Measurement: E-score
Construct (chain): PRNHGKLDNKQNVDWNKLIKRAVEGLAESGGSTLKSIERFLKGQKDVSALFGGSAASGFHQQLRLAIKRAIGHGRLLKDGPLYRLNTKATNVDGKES
CATGATCA: -0.0166
ACCAATTG: -0.0209
AAGACCAG: 0.000655
ATGCCTGG: -0.0734
CCGCCGCA: 0.161
ACAAAAGA: -0.00421

Set 2
Target: Sal-like protein 4, full length isoform A (SALL4, Homo sapiens, UniProt Q9UJQ4, residues 1-1053)
Chain of UniProt Q9UJQ4 (whole entry, looked up): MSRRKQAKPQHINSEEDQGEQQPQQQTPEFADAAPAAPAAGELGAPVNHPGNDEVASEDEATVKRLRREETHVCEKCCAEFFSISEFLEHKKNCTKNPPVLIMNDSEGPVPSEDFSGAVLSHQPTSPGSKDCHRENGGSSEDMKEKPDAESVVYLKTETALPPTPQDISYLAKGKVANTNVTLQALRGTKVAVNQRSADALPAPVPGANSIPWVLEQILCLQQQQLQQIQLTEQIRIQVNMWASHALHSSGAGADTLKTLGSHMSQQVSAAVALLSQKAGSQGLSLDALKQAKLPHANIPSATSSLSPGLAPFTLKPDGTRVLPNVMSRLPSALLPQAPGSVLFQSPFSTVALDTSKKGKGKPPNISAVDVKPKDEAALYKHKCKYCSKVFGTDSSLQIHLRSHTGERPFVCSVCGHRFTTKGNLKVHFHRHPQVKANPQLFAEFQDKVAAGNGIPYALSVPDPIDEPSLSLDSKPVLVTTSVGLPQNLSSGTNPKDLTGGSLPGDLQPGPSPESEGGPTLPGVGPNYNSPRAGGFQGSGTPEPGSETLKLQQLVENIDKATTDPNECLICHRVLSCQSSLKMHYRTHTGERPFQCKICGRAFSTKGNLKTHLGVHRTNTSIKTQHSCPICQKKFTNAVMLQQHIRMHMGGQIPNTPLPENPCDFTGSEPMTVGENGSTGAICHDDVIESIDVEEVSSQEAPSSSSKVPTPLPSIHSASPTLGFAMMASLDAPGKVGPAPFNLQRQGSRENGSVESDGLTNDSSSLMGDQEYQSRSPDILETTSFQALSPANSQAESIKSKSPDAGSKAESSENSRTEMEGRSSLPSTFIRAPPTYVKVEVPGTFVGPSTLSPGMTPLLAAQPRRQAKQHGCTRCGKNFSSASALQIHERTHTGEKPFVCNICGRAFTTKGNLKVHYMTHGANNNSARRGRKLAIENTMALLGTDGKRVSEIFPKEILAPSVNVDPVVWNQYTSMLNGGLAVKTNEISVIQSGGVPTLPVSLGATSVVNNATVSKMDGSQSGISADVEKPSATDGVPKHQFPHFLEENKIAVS
Technique: universal PBM
Form: double-stranded DNA, one strand shown
Sample: in vitro
Tested at: 600 nM
Notes: 8-mer, flanks averaged, mean of replicates
Direction: higher = stronger binding
Measurement: E-score
GATATGCC: -0.0597
AGCACTTA: 0.0954
CAGGCGGG: -0.409
CGTGCTAA: 0.0792
CATGGGTC: -0.144
CATTCGTC: -0.0307

Set 3
Target: RNA binding protein fox-1 homolog 2, RRM domain, GST-SBP tag (RBFOX2, Homo sapiens, UniProt O43251-10, residues 100-194)
Technique: RNA Bind-n-Seq
Form: RNA
Sample: in vitro
Tested at: 365 nM
Notes: natural RNA segment, single round, ends assumed
Reference: no-protein control
Direction: higher = stronger binding
Measurement: RBNS enrichment (R)
Shared flanks, not repeated: GGGAGUUCUACAGUCCGACGAUC … UGGAAUUCUCGGGUGCCAA
Target sequence (chain): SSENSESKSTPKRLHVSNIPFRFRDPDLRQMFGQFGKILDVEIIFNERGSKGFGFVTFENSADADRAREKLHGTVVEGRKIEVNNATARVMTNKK
UCAGCUUUGGAUGUGGUUACCGAGUAUCUGUAACCCUUGAAUUUCUAGACAGUAUUGCCACCUCUGGCCAAAUAUGCACUUUCCCUAGAAAGCCAUAUUCCAGCAGUGAA: 0.867
GCCCUGCUCAGGAUAAUGUGCUAUGAGCCCUCAUCUGACUCUCAGUUUGUACUGGAGAACCAUACAGGACUUACCGCACCUUACCCCAUCCACUACCAUGUGCACUGACU: 0.284
AACUUCAUCACAGUGUUGAUGUUGGACACAUAGAUGGUGAUGGCAAAGGUUUAGAACACAUUAUUUUCAAAGACUAAAUCUAAAACCCAGAGUAAACAUCAAUGCUCAGA: 0.446
GACUCGCUUGUAUUUUAAGAGAACCAAGUGGCCAAAGAAACUCUUUCUAACUUUGGCAACAUCAGAACUUGCCACAUGUAGCUACUGCAGCAAGGCUUCUGUGUACUUGC: 0.448
CUGACUCAUUCUGAAGGAGCCCCAUUCCUGGGAAAUAUUCCCUAGAAACUUCCAAAUCCCCUAAGCAGACCACUGAUAAAACCAUGUAGAAAAUUUGUUAUUUUGCAACC: 0.562
CAGGCUUUCUGCCUUGCCAUGAGGAGGAGGUGUAGACUUGUGAGUGCUCUCUCCGCUCUGAGUGGCCCUCGGGGAACCACCUGCUUUCCAUCUGUGGGGUGGGGCGCUCG: 0.399
CUAACAGGAGGAGUGAUUUGCCCAGGGUUUUUAGCCCUCUCUGGUACAGAACUGGGAUGUGAACAUUGGUCAGAGACCCCACCCAUUAGUAGCUGGAGCCUCUGGGCUCC: 0.213

Single results of other studies
PhoQ, residues 284 288 289 292 302 303 SSYNSA
fold induction (PhoP, residues 12 14 15 18 19 LHTVM (Escherichia coli, UniProt P23836); Sort-seq, measured: YFP reporter; E. coli; PhoQ-PhoP variant library, together with: 10 µM Mg2+; reference: high Mg2+ state, higher = stronger signaling): 1.48

Repeated from above (set 2):
CATGGGTC: -0.144
CATTCGTC: -0.0307
